Measured values from different studies.
Every numbered part comes from another study and shows a few of its results, in no order.

Block 1
Target: RING finger protein unkempt homolog, zinc fingers 1-6, GST-SBP tag (UNK, Homo sapiens, UniProt Q9C0B0, residues 30-357)
Method: RNA Bind-n-Seq
Molecule type: RNA
Medium: in vitro
Concentration: not given
Notes: RNA with constant flanks, human and mouse sites, ends assumed
Baseline: input RNA pool
Direction: higher = stronger binding
Measurement: bound/input enrichment
Construct (chain): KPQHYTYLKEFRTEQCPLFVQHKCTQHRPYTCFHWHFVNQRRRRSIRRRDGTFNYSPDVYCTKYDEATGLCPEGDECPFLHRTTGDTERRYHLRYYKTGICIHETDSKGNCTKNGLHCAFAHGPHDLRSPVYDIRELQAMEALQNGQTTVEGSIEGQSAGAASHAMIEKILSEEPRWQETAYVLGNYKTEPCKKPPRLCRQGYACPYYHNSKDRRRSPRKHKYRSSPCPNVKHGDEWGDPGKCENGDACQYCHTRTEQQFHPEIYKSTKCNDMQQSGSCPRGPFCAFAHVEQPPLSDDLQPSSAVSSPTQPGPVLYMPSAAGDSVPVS
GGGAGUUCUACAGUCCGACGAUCCCCAGUCACCCUCUCGAGUUAUCAGAAAAAAACUUCCAGCUCAACCAGGACAAGAUGAACUUUUCCACGCUGAGGAACAUCCAGGGUCUGUUUGCUCCCCUGAAGUUACAGAUGGAAUUCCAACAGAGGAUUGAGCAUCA: 0.237 ratio
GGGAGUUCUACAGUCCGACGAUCGAGUCGAGCAAACUUGAAACAAUUCGUUAUCUUGCAGCCUCAGUGUUCACUUGCUUGGCGAUAGCAUUGGGGUUUUAUAGGUUCUGGAAGGAGAACUGACGAUGAUGCUGCCGCUGCUGCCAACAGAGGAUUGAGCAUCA: 0.15 ratio
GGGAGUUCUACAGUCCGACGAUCAGCACUGCCAGUCCCAAGGAGAAUUACACUCAAAAUACCAUCCAAGUGGCCAUUCAGAGUUUACGUUUCUUCAACAGCUUUGCAGCUCUUCAUCUGCCUGCUUUUCAGUCUAUUGUAGGGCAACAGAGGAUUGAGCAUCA: 0.0795 ratio
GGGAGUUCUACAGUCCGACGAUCAAUCAUGGUGGCAUCUGUAAUUUUUUUCUGAUUAGCACCUAAAGAUCGGUUUAAAGUGCUUGGACUGCUUAUCCUAAAAUCGUGUCUAGUGCGCUCGAGGCAUCGGUCAUACAAAUGGGGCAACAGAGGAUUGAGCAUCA: 0.301 ratio
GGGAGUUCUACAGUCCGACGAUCAAACACGAGCGGAUUGAAAACGACGUGGCCACCAUCCUGUCUCGCCGCAUUGCUGUGGAGUAUAGCGACUCGGAAGAUGACUCGGAGUUCGAUGAAGUAGACUGGCUGGAGUAAGAAAGCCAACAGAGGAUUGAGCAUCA: 0.159 ratio
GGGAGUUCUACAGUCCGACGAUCCAGUACAUGCAUGAUUCUUUUUCAGCUUUACUAUAGUUCAUGACCUGGACUUUCUGUACUCUUGGAAGCUGGGCUCCUUAAAGGAGGCCUCUAGUGAACACCUUUAUCUCCAUGUCCCUCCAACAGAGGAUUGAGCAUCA: 0.583 ratio
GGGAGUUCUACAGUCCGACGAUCACCUUUUCAUUUUUAUUUUUUCUUUUCUCAACCAUUACGGUUUAUCUUUUUUUAAUGCAGAUAGUUAAAAUUUCACUGCCAGGUUUCUUCUGCCCACCCAAAAGAUCCAGUCUAUAAUUACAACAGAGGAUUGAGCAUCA: 9.75 ratio
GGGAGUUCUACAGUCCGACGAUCAGAAUGGAAUCCUGACAAUGAUACUGGACACACAAUGGGUGAUCCAUUCAUGCUGCAGCAGUCUACAAACCCAGCACCAGGGAUUCUGGGACCGCCGCCUCCUUCAUUUCAUCUUGGAGGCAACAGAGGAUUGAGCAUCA: 0.173 ratio
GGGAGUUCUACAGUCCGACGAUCAUUUUCUAGGAUGUCUUCUGAGAUAGGAAGGGAGAAGAGCCAGGACUGGGGGUCAGCUGGACUAGGUGGAGUAUUUAAAGUGGAGUGGAUACGCAAAGAAAGCCUUCCCUUUCAGUUUGCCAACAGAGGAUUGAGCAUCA: 0.564 ratio
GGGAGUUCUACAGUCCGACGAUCACAAAGCAGCUGACAGAAAUGCUUCCCAGCAUCCUCAACCAGCUUGGUGCAGACAGCCUGACUAGUUUAAGGAGACUGGCUGAAGCUCUGCCCAAACAAUCUGUGGAUGGAAAAGCACCCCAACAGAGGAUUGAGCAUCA: 0.071 ratio
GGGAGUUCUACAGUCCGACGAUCCCGCGGCAAUUUGGUUCCGCCCUUCCCCAGCUCAAAUCGCGAGCCCCGCCCCAUUCCGCCCCGCCCCGCGCCGGGACCGGAGCCGCAGCCCGAGCGGCGGGGUGACCAUGGAGGAGGAAGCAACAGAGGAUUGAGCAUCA: 0.202 ratio

Block 2
Target: Centromere-binding protein 1, full length, N-terminal tag (CBF1, Saccharomyces cerevisiae, UniProt P17106, residues 1-351)
UniProt P17106, sequence (whole entry, looked up): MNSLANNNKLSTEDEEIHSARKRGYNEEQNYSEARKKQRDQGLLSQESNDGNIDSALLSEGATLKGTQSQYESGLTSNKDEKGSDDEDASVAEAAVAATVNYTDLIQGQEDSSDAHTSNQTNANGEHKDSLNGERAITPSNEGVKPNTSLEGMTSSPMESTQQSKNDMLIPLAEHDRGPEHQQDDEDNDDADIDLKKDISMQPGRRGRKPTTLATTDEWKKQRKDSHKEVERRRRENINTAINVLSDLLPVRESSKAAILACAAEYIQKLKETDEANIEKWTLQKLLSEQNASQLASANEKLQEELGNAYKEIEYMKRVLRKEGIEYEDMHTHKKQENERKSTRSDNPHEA
Method: protein-binding microarray
Molecule type: double-stranded DNA, one strand shown
Medium: in vitro
Concentration: 0.8 µM
Notes: whole 60-bp probe, no competitor
Direction: higher = stronger binding
Measurement: fluorescence intensity
GAATTACCAAAGCTAAACGTGTCCGCCGCATTATAGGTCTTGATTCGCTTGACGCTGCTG: 503 a.u.
GAAAGGGTGTATTATCACATGCAGCCTTTGTTTTAGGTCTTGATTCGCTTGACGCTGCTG: 1120 a.u.
CTACCCCAGAGACCTCAGCTGAGATAAGTAATATTCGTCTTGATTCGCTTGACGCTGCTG: 460 a.u.
CCTAACTACTATAGACGCGTGCAATAGCTTCGTACAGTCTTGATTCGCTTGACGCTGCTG: 568 a.u.
TGTACGAAGCTATGTCACGTGATTATAGTAGTTAGGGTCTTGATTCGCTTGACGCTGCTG: 39300 a.u.
CTATCTGGAAAAAATCACATGAAAAAATTTCAGTTCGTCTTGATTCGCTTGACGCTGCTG: 957 a.u.
GAATCCATTTCAGCTAACGTGATACAACAGGTCTAGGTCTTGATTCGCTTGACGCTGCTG: 952 a.u.
GAAGTACATACGCATGTGGCAATATGCCAAAGCTAGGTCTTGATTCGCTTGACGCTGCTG: 579 a.u.
GAAAAAACAAAAACTCGTGAGTCACTGTGCATTTAGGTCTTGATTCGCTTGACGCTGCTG: 583 a.u.
CTAGTAACTTAGTATCACATGTATTAGTATTAATTCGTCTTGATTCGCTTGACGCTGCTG: 1960 a.u.
CCTAACTACTATAGTGACATCATATAGCTTCGTACAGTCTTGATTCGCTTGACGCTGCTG: 537 a.u.
CCTAACTACTATAAAAGCGTGCAATAGCTTCGTACAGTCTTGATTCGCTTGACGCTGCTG: 525 a.u.
TGTACGAAGCTATCTCACGTGATTATAGTAGTTAGGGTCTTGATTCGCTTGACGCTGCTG: 12300 a.u.
CCTAACTACTATATGGGCGTGAAATAGCTTCGTACAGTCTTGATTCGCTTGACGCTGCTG: 495 a.u.
CTAAGGATTTATAGGCGCGTGCGTGCAGCCTTATTCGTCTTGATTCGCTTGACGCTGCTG: 799 a.u.
GAAGACCCTGAACGTGACCGTCCATCATGAATTTAGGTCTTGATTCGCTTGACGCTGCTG: 2230 a.u.
CTATATTTAAGGGTATACGTGCTACGGTCCACTTTCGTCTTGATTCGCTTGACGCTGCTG: 525 a.u.
CTAAGTTTTGAATAACACGTGCCTTTGATTTTTTTCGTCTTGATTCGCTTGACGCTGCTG: 9000 a.u.
GAAATGTTCCGGAAGCACGGGAGAAATGGACTTTAGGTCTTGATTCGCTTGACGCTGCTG: 573 a.u.
CTAAAAAAGAAAATACACGTGCTGTTAATATACTTCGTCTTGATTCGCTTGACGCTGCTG: 6920 a.u.
CTACTGTAAACAATTCAACTGACATTAGATACATTCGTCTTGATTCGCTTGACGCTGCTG: 558 a.u.

Block 3
Target: Histone acetyltransferase KAT6A, winged helix 2, GST fusion (KAT6A, Homo sapiens, UniProt Q92794, residues 85-181)
Method: protein binding microarray
Molecule type: double-stranded DNA, one strand shown
Medium: in vitro
Concentration: not given
Notes: 8-mer, flanks averaged, mean of 2 arrays, mostly near background
Baseline: not given
Direction: higher = stronger binding
Measurement: E-score
Construct (chain): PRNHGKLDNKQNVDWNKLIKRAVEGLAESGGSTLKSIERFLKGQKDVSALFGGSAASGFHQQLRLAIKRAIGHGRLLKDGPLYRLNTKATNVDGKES
ACTCCACT: -0.0892
ATAAATAT: 0.0903
CTACGCAC: 0.0366
ACAAGTCC: -0.1
TACTTTGA: 0.0804
CTACCGGC: 0.0146
GTGATCAC: -0.108
CGACGCAG: 0.144
TGCTCACA: -0.0115
CATCGAAC: 0.099
ATACGTGA: -0.22
CCGATACG: -0.0978
ATAAGATC: -0.0639
AAAGGACG: -0.0855
AGCGTACG: -0.109
CATCTACC: -0.103
CGTCATTA: -0.17

Block 4
Target: RNA binding protein fox-1 homolog 2, RRM domain, GST-SBP tag (RBFOX2, Homo sapiens, UniProt O43251-10, residues 100-194)
Method: RNA Bind-n-Seq
Molecule type: RNA
Medium: in vitro
Concentration: 365 nM
Notes: natural RNA segment, single round, ends assumed
Baseline: no-protein control
Direction: higher = stronger binding
Measurement: RBNS enrichment (R)
Residues (chain): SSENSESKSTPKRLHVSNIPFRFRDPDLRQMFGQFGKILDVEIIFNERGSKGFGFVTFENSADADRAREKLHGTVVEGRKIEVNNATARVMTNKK
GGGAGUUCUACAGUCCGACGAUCAAAACAGGACAAAGAGCUCUGCAGCAUCCUCAUGCCCUAUUACAUUCUCAGCCCAGUGGGCCUCAGCUGCCUUUGGUAGGUUCCAUCCCUUAGCCAUUCCCACCCAUCUGUGGAAUUCUCGGGUGCCAA: 0.934
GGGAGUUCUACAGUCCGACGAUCAUCGCUCUUUUCCACUCCAAGAUGCCCUCAUAAACCAAUGUGGCAAGACUACUGGACUUCUAUCAAUGGUACUCUAAUCAGUCCUUAUUAUCCCAGCUUGCUGAGGGGCAUGGAAUUCUCGGGUGCCAA: 0.386
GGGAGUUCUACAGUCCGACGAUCUUAACAAGACUUUUUGUACUGAAAACAAUUUUUUUGAAUCUUUCGUAGCCUAAAAGACAAUUUUCCUUGGAACACAUAAGAACUGUGCAGUAGCCGUUUGUGGUUUAAAGUGGAAUUCUCGGGUGCCAA: 0.302
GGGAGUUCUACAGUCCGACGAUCAGAAGGGCUGGGGCCGGGGCUGAGGGUGCCCUUUUCCAGCCUCAGCCUACUCCGCUCACUGAACUCCUUCCCCACUUCUGUGCCACCCCCGGUCUAUGUCGAGAGCUGGCUGGAAUUCUCGGGUGCCAA: 0.35
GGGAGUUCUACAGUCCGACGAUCUUCUUGCAUUCUUUCUAAGCAGUCAGCAAGUAUUUAUUAAAUGCUUUAAGGAAAACAAUAAUAGAGUAAUUUUUGAGUUCGCCAAUUACAUCAAUUAAGAAAUUUCAGAAUGGAAUUCUCGGGUGCCAA: 1.58
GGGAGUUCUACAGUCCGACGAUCAUUUACCUUCUGUGUCCUGGCCCUGCCACCUGUGUAUUUUUAGGGUGCUAUGGAAACAAUGAAGAGAAACGGGGAUUUCAGAAGAAAAUUGUAACCAAAUUCAUAUACUUUGGAAUUCUCGGGUGCCAA: 0.587
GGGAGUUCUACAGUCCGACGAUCUGAUGGCUUGUGUACAGACAAGCAUUUAUCCAGGUUGCGUUAUCCAAACUGAUUUGUUAAAGCUCCAGGUCACGUUCUUACACUAAGAAAAUCAUUCAGUAAACAUGAGAUGGAAUUCUCGGGUGCCAA: 0.614
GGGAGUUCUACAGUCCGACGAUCGCCCUUAAGUCCAGCGAGGAAAGCUCGGUGUGGGCCCGCUCUACGCUCCGUUUGGGGUGACCUGGAACGCCUCUUCUCCCAGCUCCCUCCAGCCAUCAGCAGCCUCUUGUUGGAAUUCUCGGGUGCCAA: 0.344
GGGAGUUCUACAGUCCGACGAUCUGCUUCCCUAAAUUACUUUUUUAGAGCCCAAACCCCAGGUUUAGGGUGAGGGUUUGUAAUACAAAGAAACACUUCCAUCACUUCUGCCCUUAACCCUUGCCUCUAUUACCUGGAAUUCUCGGGUGCCAA: 0.473
